Measured values gathered from unrelated publications.
A part holds a random share of what one study measured.
Sequence of UniProt Q16816 (whole entry, looked up): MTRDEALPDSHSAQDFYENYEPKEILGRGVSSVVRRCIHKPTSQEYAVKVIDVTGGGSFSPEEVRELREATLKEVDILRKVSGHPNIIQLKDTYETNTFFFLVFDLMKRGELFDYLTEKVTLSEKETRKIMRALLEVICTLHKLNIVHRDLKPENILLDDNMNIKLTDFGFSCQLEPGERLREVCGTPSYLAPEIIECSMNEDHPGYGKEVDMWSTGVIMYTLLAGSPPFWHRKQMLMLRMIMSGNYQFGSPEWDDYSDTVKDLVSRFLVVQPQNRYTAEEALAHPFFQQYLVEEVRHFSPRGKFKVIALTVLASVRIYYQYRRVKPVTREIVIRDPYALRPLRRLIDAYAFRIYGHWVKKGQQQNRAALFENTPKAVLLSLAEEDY
Sequence of UniProt Q15139 (whole entry, looked up): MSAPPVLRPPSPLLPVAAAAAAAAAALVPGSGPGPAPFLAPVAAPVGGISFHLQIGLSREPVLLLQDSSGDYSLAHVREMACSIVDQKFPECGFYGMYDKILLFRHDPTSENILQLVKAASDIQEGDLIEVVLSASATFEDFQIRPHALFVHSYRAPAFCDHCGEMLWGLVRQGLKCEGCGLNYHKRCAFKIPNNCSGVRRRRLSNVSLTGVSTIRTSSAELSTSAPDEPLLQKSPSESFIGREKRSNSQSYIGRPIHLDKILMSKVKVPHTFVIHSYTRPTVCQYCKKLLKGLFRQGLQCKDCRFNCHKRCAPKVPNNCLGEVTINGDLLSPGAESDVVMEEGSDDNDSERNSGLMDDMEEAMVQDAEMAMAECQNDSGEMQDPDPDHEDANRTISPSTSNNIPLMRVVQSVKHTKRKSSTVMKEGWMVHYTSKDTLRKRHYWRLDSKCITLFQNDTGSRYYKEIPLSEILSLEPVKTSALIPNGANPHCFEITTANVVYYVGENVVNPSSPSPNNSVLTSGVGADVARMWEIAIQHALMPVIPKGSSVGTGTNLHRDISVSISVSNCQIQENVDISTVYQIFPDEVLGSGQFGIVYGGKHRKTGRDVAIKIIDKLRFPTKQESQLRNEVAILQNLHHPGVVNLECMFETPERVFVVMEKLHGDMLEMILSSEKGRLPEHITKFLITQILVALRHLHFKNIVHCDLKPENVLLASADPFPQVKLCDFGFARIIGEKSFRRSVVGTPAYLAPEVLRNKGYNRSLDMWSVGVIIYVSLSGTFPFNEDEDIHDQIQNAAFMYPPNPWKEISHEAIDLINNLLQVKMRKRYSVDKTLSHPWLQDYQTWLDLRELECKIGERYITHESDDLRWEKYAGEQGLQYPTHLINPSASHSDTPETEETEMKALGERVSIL
Sequence of UniProt P54760 (whole entry, looked up): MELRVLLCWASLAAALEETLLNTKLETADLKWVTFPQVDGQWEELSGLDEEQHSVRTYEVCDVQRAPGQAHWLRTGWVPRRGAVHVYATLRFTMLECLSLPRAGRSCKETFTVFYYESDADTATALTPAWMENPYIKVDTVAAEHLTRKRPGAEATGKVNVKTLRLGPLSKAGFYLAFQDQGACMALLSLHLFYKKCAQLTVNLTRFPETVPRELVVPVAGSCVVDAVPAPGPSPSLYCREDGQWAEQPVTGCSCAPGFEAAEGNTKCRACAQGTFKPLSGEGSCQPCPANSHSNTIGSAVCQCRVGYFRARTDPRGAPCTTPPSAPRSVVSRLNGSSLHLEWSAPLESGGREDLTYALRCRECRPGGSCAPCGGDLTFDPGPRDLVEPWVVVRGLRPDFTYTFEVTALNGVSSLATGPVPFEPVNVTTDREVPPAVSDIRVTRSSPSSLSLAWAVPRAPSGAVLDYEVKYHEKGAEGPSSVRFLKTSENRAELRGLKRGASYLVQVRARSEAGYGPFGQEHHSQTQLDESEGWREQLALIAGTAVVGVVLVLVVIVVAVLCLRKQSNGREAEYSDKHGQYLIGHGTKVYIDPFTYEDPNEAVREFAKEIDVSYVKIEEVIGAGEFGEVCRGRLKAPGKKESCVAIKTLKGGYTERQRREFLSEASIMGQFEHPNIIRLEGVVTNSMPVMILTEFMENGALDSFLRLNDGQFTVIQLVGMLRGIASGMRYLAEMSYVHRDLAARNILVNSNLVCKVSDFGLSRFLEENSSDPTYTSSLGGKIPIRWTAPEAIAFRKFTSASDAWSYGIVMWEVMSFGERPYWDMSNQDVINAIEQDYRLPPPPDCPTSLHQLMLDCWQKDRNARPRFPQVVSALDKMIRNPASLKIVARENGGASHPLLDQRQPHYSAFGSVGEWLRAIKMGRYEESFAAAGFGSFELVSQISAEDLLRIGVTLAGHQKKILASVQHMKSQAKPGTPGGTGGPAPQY
Sequence of UniProt P00519 (whole entry, looked up): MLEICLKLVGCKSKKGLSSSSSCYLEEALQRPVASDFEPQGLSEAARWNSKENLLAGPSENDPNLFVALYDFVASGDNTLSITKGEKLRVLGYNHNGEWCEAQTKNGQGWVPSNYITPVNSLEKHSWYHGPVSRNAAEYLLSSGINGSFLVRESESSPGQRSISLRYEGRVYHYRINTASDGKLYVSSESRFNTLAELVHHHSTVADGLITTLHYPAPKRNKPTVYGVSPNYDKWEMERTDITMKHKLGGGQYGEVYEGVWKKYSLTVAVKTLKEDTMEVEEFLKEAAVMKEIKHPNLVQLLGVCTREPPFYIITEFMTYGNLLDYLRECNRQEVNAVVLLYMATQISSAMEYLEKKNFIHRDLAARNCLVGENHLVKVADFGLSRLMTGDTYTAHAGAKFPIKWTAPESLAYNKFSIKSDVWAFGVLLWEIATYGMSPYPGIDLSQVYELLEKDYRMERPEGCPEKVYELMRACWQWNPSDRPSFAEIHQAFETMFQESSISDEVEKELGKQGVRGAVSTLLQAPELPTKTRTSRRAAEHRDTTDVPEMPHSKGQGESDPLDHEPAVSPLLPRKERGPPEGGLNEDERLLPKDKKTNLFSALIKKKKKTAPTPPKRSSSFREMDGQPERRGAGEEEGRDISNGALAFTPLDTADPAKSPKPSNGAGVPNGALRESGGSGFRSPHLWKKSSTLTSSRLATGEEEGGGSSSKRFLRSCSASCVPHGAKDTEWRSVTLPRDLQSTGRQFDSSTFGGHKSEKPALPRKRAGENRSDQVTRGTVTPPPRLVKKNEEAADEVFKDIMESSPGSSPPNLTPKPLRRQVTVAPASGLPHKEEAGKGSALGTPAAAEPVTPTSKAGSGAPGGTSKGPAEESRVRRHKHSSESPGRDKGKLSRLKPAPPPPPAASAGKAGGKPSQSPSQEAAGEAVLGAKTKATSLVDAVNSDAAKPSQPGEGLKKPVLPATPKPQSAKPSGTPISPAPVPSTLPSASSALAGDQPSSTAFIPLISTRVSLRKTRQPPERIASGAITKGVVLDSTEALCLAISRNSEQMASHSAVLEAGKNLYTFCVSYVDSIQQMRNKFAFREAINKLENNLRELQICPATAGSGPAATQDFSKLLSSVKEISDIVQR
Sequence of UniProt P42684 (whole entry, looked up): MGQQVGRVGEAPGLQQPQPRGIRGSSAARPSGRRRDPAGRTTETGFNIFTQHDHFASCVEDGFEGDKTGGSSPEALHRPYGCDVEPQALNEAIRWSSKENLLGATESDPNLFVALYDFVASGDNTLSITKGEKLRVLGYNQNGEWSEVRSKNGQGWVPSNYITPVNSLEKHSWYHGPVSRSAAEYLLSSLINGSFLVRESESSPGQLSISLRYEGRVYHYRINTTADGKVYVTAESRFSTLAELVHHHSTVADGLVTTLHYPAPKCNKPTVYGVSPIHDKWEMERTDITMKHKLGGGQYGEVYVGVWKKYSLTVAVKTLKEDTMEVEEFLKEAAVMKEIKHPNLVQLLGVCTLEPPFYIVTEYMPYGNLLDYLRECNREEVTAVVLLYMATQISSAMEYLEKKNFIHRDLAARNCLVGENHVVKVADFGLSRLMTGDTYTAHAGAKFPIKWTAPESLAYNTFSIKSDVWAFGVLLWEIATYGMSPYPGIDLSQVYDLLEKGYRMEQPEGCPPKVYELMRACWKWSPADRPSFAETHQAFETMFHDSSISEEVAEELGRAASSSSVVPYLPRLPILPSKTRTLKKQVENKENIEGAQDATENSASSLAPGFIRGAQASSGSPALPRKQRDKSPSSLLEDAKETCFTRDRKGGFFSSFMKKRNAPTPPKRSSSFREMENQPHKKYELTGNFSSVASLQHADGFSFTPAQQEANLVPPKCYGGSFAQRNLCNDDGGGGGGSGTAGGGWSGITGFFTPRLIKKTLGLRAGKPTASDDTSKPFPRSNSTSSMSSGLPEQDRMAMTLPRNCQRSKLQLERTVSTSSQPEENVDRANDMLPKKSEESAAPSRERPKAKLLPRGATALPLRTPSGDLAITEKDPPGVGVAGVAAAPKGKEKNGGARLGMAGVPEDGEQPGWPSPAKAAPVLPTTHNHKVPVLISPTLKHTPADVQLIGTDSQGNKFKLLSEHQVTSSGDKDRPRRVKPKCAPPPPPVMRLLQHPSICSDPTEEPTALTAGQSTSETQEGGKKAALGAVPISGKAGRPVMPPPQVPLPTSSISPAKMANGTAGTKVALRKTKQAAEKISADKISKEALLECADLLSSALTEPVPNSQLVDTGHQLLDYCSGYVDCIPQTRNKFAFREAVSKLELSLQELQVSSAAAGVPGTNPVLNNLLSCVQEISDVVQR
Sequence of UniProt Q9P1W9 (whole entry, looked up): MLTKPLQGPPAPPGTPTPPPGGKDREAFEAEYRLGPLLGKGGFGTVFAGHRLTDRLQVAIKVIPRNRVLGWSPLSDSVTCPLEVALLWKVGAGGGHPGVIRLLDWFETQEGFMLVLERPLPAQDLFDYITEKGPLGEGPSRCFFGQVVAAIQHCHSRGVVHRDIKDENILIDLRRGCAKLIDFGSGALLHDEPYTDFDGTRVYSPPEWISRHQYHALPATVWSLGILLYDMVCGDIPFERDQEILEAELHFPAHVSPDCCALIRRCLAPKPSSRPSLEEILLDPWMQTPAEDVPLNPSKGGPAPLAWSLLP

Block 1 — organism: Sarcocystis neurona; observed: parasite activity; concentration: concentration not given
| Structure (SMILES) | activity class |
| --- | --- |
| CN1CCN(c2nc3cc(C(F)(F)F)ccc3n3cccc23)CC1 | inactive |
| Nc1nc(Cl)nc2c1ncn2[C@@H]1O[C@H](CO)[C@@H](O)[C@H]1O | inactive |
| CCCc1nc(C)c2c(=O)[nH]c(-c3cc(S(=O)(=O)N4CCN(CC)CC4)ccc3OCC)nn12.O=C(O)CC(O)(CC(=O)O)C(=O)O | inactive |
| CC(COc1ccccc1Cc1ccccc1)N1CCCCC1.O=P(O)(O)O (stereo not shown) | inactive |
| CN(CCO)CC(O)Cn1cnc2c1c(=O)n(C)c(=O)n2C.O=C(O)c1cccnc1 (stereo not shown) | inactive |
| CCC(C)(C)N=C(NC#N)Nc1cccnc1 | inactive |
| O=C(O)c1cc2ccccc2c(Cc2c(O)c(C(=O)O)cc3ccccc23)c1O.OCCOCCN1CCN(C(c2ccccc2)c2ccc(Cl)cc2)CC1 | inactive |

Block 2 — observed: cell-free assay; technique: competition with immobilised ligand; concentration: 1 µM
Structure (SMILES): CCCOc1ccc([C@H]2[C@H](C(=O)O)[C@@H](c3ccc4c(c3)OCO4)CN2CC(=O)Nc2c(CC)cccc2CC)cc1
| target | remaining binding [%] |
| --- | --- |
| MYLK2 (Homo sapiens, UniProt Q9H1R3) | 91 |
| ABL2 (Homo sapiens, UniProt P42684) | 100 |
| KIT (Homo sapiens, UniProt P10721, V559D) | 87 |
| STK39 (Homo sapiens, UniProt Q9UEW8) | 58 |
| EGFR (Homo sapiens, UniProt P00533, G719C) | 95 |
| RET (Homo sapiens, UniProt P07949, V804M) | 100 |
| PIKFYVE (Homo sapiens, UniProt Q9Y2I7) | 86 |
| PRKD1 (Homo sapiens, UniProt Q15139) | 94 |
| SLK (Homo sapiens, UniProt Q9H2G2) | 100 |
| PIK3CA (Homo sapiens, UniProt P42336, M1043I) | 91 |
| PIM2 (Homo sapiens, UniProt Q9P1W9) | 91 |
| NUAK2 (Homo sapiens, UniProt Q9H093) | 57 |
| DAPK3 (Homo sapiens, UniProt O43293) | 89 |
| HIPK1 (Homo sapiens, UniProt Q86Z02) | 75 |

Block 3 — host: human; medium: microsomes or S9; concentration: 2 µM; time: 0.5 h
| Compound | remaining compound |
| --- | --- |
| O=c1c2ccc(Cl)cc2ncn1CCS(=O)(=O)c1cc(Cl)ccc1Cl | 78.6% |
| CC(C)(C)Nc1nc(Cl)nc(NC(C)(C)CO)n1 | > 99.9% |
| Cn1nc2c(c1C(=O)N1CCC(C3CCCCN3S(C)(=O)=O)CC1)CCCC2 (stereo not shown) | 8.48% |
| Nc1ccc(CCNC[C@H](O)c2ccccc2)cc1 | 73.1% |
| Cc1cccc(-c2noc(-c3cn(CC(=O)Nc4cccc(C)c4C)c4nc(C)ccc4c3=O)n2)c1 | 58.4% |

Block 4 — observed: enzyme activity; mode: inhibitor; concentration: 0.5 µM; relative to: control
SMILES: CC(C)[C@H](CO)Nc1nc(Nc2cccc(Cl)c2)c2ncn(C(C)C)c2n1
| target | remaining activity |
| --- | --- |
| SRMS (Homo sapiens, UniProt Q9H3Y6) | 104% |
| CAMK2B (Homo sapiens, UniProt Q13554) | 94.3% |
| Cyclin-dependent kinase 4, with cyclin D3 (CDK4, Homo sapiens, UniProt P11802) | 88.3% |
| STK16 (Homo sapiens, UniProt O75716) | 102% |
| RPS6KA5 (Homo sapiens, UniProt O75582) | 100% |
| HIPK2 (Homo sapiens, UniProt Q9H2X6) | 86.3% |
| AXL (Homo sapiens, UniProt P30530) | 94.7% |
| BLK (Homo sapiens, UniProt P51451) | 68.8% |
| HIPK4 (Homo sapiens, UniProt Q8NE63) | 88.7% |
| Cyclin-dependent kinase 6, with cyclin D3 (CDK6, Homo sapiens, UniProt Q00534) | 71% |
| TSSK2 (Homo sapiens, UniProt Q96PF2) | 97.5% |
| RPS6KA6 (Homo sapiens, UniProt Q9UK32) | 96.8% |
| EPHA4 (Homo sapiens, UniProt P54764) | 102% |
| PHKG1 (Homo sapiens, UniProt Q16816) | 89.9% |
| ABL1 (Homo sapiens, UniProt P00519) | 75.6% |
| PDPK1 (Homo sapiens, UniProt O15530) | 91.6% |
| EPHB4 (Homo sapiens, UniProt P54760) | 71.7% |
| MAP4K4 (Homo sapiens, UniProt O95819) | 84.9% |
| MAPKAPK3 (Homo sapiens, UniProt Q16644) | 85.4% |
| STK17A (Homo sapiens, UniProt Q9UEE5) | 95% |
| WNK3 (Homo sapiens, UniProt Q9BYP7) | 89.1% |
| EPHB1 (Homo sapiens, UniProt P54762) | 83.5% |
| PRKACG (Homo sapiens, UniProt P22612) | 113% |

For quick reference, copied from above (block 4):
| target | remaining activity |
| --- | --- |
| RPS6KA5 (Homo sapiens, UniProt O75582) | 100% |
| HIPK2 (Homo sapiens, UniProt Q9H2X6) | 86.3% |
| AXL (Homo sapiens, UniProt P30530) | 94.7% |
| BLK (Homo sapiens, UniProt P51451) | 68.8% |
| HIPK4 (Homo sapiens, UniProt Q8NE63) | 88.7% |
